Measured values collected from several papers.
Lines come from different studies, so protocols differ. Numbers after ± are the reported error.

Structure (SMILES)	cell line	assay	conditions	how to read	endpoint	result
Cc1ccc2oc(=O)c(-c3nc4cnccc4[nH]3)cc2c1	endometrial stem cells	cell proliferation	–	relative to: endometrial stem cells over HeLa	EC50 ratio	~70 fold
COc1cc(CNC(=O)C[C@H](C)CCC=C(C)C)ccc1OCc1cn(-c2ccc(F)cc2)nn1	SNB-19 CNS cancer cells	SRB	10 µM, 48 h	–	growth percent	53.1%
COc1cc(C2Oc3ccc(C=C4Oc5cc(O)ccc5C4=O)cc3OC2CO)cc(OC)c1O (stereo not shown)	MRC5 over DU-145	cytotoxicity, MTT	72 h	relative to: IC50 MRC5 over IC50 DU-145	selectivity ratio	0.84
C#CCN(CC(=O)O[C@H]1[C@H](C)O[C@@H](O[C@H]2[C@H](N(C)C)[C@@H](O)[C@H](O[C@H]3[C@@H](CC=O)C[C@@H](C)[C@@H](O[C@H]4CC[C@H](N(C)C)[C@@H](C)O4)/C=C/C=C/C[C@@H](C)OC(=O)C[C@@H](O)[C@@H]3OC)O[C@@H]2C)C[C@@]1(C)O)C(=O)c1ccc(C(F)(F)F)cc1	HGC-27	PI flow cytometry	0.10, 0.45, 0.90 µM, 48 h	–	G0/G1 and G2/M phase cells	decreased
Brc1cccc(CNc2nc(NCc3ccccc3)c3ccccc3n2)c1	SW-403	cell growth or viability	72 h	–	GI50	2800 nM
COc1cc(CNC(=O)C[C@H](C)CCC=C(C)C)ccc1OCc1cn(-c2ccc(C#N)cc2)nn1	SNB-19 CNS cancer cells	SRB	10 µM, 48 h	–	growth percent	83.6%
O=Cc1c(O)ccc2ccccc12	HUVEC	RNA sequencing, measured: SESN2	75 µM, 24 h	relative to: DMSO	log2 fold change	2.81
CC1=CCC23OC2(C)CCC2C(CN(C)C)C(=O)OC2C13.Cl (stereo not shown)	C6 rat glioma cells	–	20 mg/mL, clonogenic	relative to: control	proliferation reduction	10.4 fold
COc1ccc([C@@H]2CC(=O)c3c(O)cc(O[C@@H]4O[C@H](CO[C@@H]5O[C@@H](C)[C@H](O)[C@@H](O)[C@H]5O)[C@@H](O)[C@H](O)[C@H]4O)cc3O2)cc1O	A549	cell migration, scratch	50 µg/mL, 48 h	–	gap closure	8.81 ± 2.52%
COc1cc(CNC(=O)C[C@H](C)CCC=C(C)C)ccc1OCc1cn(-c2cccc([N+](=O)[O-])c2)nn1	OVCAR-5 ovarian cancer cells	SRB	10 µM, 48 h	–	growth percent	98%
CC1=CC(C)=[N+]2C1=C(CCCC(=O)NCCCCCC(=O)NCCCC[C@H](NC(=O)N[C@@H](CCC(=O)O)C(=O)O)C(=O)O)c1c(C)cc(C)n1[B-]2(F)[18F] (stereo partly shown)	LNCaP	PSMA-mediated internalization	30 min, added: 2-PMPA blocking	–	internalized fraction	2.17%
C=CCOC(=O)C1C(C=O)=Cc2cc3c(cc2C1c1cc(OC)c(OC)c(OC)c1)OCO3 (stereo not shown)	uninfected mouse splenocytes	–	–	relative to: splenocyte CC50 over amastigote EC50	selectivity index	> 3.3
COc1ccc([C@@H]2CC(=O)c3c(O)cc(O[C@@H]4O[C@H](CO[C@@H]5O[C@@H](C)[C@H](O)[C@@H](O)[C@H]5O)[C@@H](O[C@H]5O[C@H](CO)[C@@H](O)[C@H](O)[C@H]5O)[C@H](O)[C@H]4O)cc3O2)cc1O	A549	Matrigel Transwell invasion	100 µg/mL, 48 h	–	invasion	28.8 ± 4.84%
COc1cc(CNC(=O)C[C@H](C)CCC=C(C)C)ccc1OCc1cn(-c2ccccc2F)nn1	M14 melanoma cells	SRB	10 µM, 48 h	–	growth percent	94.8%
O=C(NN1C(=O)c2ccccc2NC1c1ccc([N+](=O)[O-])o1)c1ccc([N+](=O)[O-])cc1 (stereo not shown)	LDR	silenced GFP reporter derepression, microscopy	overnight	relative to: sodium butyrate	Emax	27%
CN1CCN(c2ccc(Nc3ncc(Cl)c(Nc4ccccc4NS(=O)(=O)C4CC4)n3)cc2)CC1	Ba/F3 EGFR C797S	western blot	concentration not given, 24 h	–	cleaved caspase-3 level	increased
COc1cc(CNC(=O)C[C@H](C)CCC=C(C)C)ccc1OCc1cn(-c2cccc(Cl)c2)nn1	BT-549 breast cancer cells	SRB	10 µM, 48 h	–	growth percent	66.4%
CCCCCCCCN(CCC(=O)Nc1ccccc1)C(=O)c1cccn1C	progeroid mouse fibroblasts	immunoblot, measured: phospho-histone H2AX	2 µM, 14 d	–	phospho-H2AX level	decreased
C[C@@H](O)[C@@H]1NC(=O)[C@H](CCCCN)NC(=O)[C@@H](Cc2ccc(NC(N)=O)cc2)NC(=O)[C@H](Cc2ccc(NC(=O)[C@@H]3CC(=O)NC(=O)N3)cc2)NC(=O)[C@H](NC(=O)[C@H](Cc2ccc(Cl)cc2)NC(=O)CN2CCN(CC(=O)O)CCN(CC(=O)O)CCN(CC(=O)O)CC2)CSSC[C@@H](C(=O)N[C@H](Cc2ccc(O)cc2)C(N)=O)NC1=O	AR-42J	radioligand uptake	concentration not given, 4 h	–	internalized fraction of cell activity	20.9 ± 0.59%
O=[N+]([O-])C(=C\Nc1ccccc1O)/C=N/c1ccccc1O	LDR	silenced GFP reporter derepression, microscopy	overnight	relative to: sodium butyrate	Emax	29%
Cn1c2cc([S+](C)[O-])sc2c2cnn(Cc3cccc(N)c3)c(=O)c21 (stereo not shown)	H1299	LC-MS/MS	25 µM, 36 h	–	intracellular lactate	decreased
COc1ccc(NC(=O)COc2ccc(/C=C/C(C)=N/O)cc2OC)cc1	SH-SY5Y	flow cytometry	2.5 µM, added: amyloid beta 10 µM	–	IL-6 expressing cells	48.8%

A few entries again:
Structure (SMILES)	cell line	assay	conditions	how to read	endpoint	result
Brc1cccc(CNc2nc(NCc3ccccc3)c3ccccc3n2)c1	SW-403	cell growth or viability	72 h	–	GI50	2800 nM
COc1cc(C2Oc3ccc(C=C4Oc5cc(O)ccc5C4=O)cc3OC2CO)cc(OC)c1O (stereo not shown)	MRC5 over DU-145	cytotoxicity, MTT	72 h	relative to: IC50 MRC5 over IC50 DU-145	selectivity ratio	0.84
